Assay results of several laboratories.
Each numbered part is a random draw from the data of one study; scales do not carry over between parts. Changes are numbered by the printed parent chain.
Chain of UniProt Q8N2K1 (whole entry, looked up): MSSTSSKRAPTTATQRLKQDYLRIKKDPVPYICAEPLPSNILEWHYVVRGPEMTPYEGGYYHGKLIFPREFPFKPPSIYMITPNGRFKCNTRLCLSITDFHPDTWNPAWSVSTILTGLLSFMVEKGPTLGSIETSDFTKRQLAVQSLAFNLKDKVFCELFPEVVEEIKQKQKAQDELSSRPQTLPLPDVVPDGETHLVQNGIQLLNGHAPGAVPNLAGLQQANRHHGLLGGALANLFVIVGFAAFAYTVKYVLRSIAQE
Chain of UniProt Q9Y385 (whole entry, looked up): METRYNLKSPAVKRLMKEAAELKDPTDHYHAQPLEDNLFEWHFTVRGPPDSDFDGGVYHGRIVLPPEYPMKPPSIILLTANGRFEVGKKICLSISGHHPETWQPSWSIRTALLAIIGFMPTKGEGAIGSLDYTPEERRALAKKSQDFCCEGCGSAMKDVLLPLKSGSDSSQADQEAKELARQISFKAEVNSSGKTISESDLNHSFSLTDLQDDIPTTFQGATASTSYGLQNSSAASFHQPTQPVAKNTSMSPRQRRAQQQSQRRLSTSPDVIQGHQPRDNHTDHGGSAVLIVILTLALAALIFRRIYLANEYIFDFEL
Chain of UniProt Q7Z7E8 (whole entry, looked up): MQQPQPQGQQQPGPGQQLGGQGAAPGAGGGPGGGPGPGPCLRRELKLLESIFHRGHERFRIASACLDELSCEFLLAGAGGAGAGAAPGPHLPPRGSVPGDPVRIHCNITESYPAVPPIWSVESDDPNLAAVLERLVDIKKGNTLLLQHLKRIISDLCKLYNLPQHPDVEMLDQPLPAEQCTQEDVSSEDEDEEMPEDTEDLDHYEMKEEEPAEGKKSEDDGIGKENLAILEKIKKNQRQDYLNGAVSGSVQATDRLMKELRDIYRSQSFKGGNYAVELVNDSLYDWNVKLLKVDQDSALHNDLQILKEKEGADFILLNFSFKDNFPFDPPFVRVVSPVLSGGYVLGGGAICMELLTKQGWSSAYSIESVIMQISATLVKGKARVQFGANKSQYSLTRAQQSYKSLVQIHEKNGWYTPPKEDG
Chain of UniProt Q9H832 (whole entry, looked up): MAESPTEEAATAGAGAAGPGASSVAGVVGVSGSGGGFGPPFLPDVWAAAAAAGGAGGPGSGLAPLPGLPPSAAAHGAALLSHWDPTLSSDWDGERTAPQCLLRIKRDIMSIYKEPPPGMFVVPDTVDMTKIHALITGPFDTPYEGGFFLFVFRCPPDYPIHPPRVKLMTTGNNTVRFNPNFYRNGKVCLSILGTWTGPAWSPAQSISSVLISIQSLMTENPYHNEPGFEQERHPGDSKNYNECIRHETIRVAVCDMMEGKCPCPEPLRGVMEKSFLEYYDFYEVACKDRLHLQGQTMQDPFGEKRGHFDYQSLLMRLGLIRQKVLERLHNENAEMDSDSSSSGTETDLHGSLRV
Chain of UniProt P68036 (whole entry, looked up): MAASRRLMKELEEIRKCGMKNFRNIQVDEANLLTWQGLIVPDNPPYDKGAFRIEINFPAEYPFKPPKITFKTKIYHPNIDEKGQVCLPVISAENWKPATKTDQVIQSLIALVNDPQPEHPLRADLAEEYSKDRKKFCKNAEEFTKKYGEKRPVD
Chain of UniProt P51668 (whole entry, looked up): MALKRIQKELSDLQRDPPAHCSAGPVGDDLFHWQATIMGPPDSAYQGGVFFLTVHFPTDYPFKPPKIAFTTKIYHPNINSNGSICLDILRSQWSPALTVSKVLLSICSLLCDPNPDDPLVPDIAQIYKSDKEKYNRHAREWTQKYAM
Chain of UniProt P62253 (whole entry, looked up): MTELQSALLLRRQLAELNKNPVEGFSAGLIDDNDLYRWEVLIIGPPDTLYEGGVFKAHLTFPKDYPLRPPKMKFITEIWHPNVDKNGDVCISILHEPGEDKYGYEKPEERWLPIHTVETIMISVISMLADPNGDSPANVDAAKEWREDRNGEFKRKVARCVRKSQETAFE
Chain of UniProt Q969T4 (whole entry, looked up): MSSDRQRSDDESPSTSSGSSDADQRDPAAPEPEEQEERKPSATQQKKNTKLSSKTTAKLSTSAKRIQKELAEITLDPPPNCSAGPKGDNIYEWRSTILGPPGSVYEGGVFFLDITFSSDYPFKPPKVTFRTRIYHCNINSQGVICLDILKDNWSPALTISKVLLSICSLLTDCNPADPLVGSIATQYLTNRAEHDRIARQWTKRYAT
Chain of UniProt O00762 (whole entry, looked up): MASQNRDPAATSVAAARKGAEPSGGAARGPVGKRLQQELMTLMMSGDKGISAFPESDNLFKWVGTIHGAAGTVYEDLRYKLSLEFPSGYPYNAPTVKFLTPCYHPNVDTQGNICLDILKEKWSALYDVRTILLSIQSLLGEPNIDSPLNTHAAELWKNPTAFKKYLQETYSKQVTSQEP
Chain of UniProt P61081 (whole entry, looked up): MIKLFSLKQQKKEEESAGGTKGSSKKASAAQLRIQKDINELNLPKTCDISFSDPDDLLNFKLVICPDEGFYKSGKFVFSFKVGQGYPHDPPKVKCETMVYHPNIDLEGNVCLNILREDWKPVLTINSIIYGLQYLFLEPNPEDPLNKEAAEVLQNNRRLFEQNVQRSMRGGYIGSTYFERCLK
Chain of UniProt Q9NPD8 (whole entry, looked up): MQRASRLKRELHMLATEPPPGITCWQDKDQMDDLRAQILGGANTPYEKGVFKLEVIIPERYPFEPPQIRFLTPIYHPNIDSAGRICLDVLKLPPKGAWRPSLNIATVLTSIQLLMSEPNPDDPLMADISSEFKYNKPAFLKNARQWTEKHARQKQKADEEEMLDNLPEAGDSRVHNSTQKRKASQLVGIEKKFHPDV
Chain of UniProt P63146 (whole entry, looked up): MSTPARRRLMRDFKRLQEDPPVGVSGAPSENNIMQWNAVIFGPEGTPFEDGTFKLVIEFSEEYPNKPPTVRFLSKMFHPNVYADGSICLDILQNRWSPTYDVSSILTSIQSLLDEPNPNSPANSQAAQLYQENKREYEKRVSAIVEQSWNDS

Set 1
Target: Ras GTPase-activating protein-binding protein 1, C-terminal RGG region (G3BP1, Homo sapiens, UniProt Q13283)
Chain of UniProt Q13283 (whole entry, looked up): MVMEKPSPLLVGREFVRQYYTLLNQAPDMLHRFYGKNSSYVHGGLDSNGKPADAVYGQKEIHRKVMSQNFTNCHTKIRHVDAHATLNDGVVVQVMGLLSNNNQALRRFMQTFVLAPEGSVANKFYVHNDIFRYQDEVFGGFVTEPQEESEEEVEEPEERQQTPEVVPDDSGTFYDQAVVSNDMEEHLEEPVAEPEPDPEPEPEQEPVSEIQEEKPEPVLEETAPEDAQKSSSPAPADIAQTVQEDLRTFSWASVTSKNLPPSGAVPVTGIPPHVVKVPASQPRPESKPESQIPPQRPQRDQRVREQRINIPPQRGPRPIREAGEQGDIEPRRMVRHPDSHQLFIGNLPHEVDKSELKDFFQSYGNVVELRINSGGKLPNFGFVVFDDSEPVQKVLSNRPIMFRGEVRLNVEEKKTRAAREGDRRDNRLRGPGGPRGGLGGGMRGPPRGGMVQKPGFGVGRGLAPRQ
Method: RNA Bind-n-Seq
Molecule type: RNA
Sample: in vitro
Concentration: 1 µM
Notes: whole 134-nt RNA, ends assumed
Together with: 150 mM KCl
Reference: input library
Reading: higher = stronger binding
All sequences stand within: GGGAGUUCUACAGUCCGACGAUC … UGGAAUUCUCGGGUGUCAAGG
Oligonucleotide | log2 enrichment
GUCCUGUGCUACACAUCGUAUGUACCGAAUCGGGGAAAGGGGAAAAAAAGGGGUGGGGAAAGUAUUAUGUUACGCCGUUCGGAUCUGCAC | 1.71
CAAGUCCUGUGCUACACAUCGUAUGUACCGAAUCGGUUUUUGGAAAGGUUUUUGGAAAGUAUUAUGUUACGCCGUUCGGAUCUGCACUUC | -1.73
GAAAUUUGGUUAUGUGGAUUUUGAAUCUGCUGAAGACCUGGAGAAAGCGUUGGAACUCACUGGUUUGAAAGUCUUUGGCAAUGAAAUUAA | -2.93
GUCCUGUGCUACACAUCGUAUGUACCGAAUCGGGGUUUUUGGGGUUUGGGGUUUGGGGAAAGUAUUAUGUUACGCCGUUCGGAUCUGCAC | 3.59
CCUCAAGUCCUGUGCUACACAUCGUAUGUACCGAAUCGGGCGGGCGGCGGGGAAAGUAUUAUGUUACGCCGUUCGGAUCUGCACUUCCAG | 0.382
UGCACUGACUGGUGGUGUCAACCCAUGGCUCAACUGGAAGCACUGUGGAAGAAGAUGGAGGGUGUGGUAAGUCCAUCAGACCUGGGACCG | -0.0204
UUCUAUUUCUUUCCUUAAUGUUUUUUUCUUCCCUACUGUUUUAUCCUCCCUUUGCUUUGGAAGGAUAUUGCUGCAUAUCGAGCUAAAGGA | -0.583
UUUGACGCGGUGUGUUACGUGGGGGAGAGAAUAAAACUCCAGCGAGAUCCGGGCCGUGAACGAAAGCAGUGACGGAGGAGCUUGUACCAC | 0.238
AGUCCUGUGCUACACAUCGUAUGUACCGAAUCAAACCCCCAAACCCCCAAACCCAAAAAAGUAUUAUGUUACGCCGUUCGGAUCUGCACU | -1.17

Set 2
Molecule: KLRKLKEAMLCMVCCEEEINSTFCPCGHTVCCESCAAQLQSCPVCRSRVEHVQHVY (MYLIP RING domain (UniProt Q8WY64))
Method: yeast two-hybrid
Sample: yeast
Notes: mostly zero background
Reference: not given
Reading: higher = stronger interaction
target | lacZ reporter activity
UBE2T UBC core domain (UniProt Q9NPD8) | 0
UBE2Q1 UBC core domain (UniProt Q7Z7E8) | 0
BIRC6 UBC core domain (UniProt Q9NR09) | 0
UBE2C UBC core domain (UniProt O00762) | 0
UBE2E3 UBC core domain (UniProt Q969T4) | 0
UBE2G1 UBC core domain (UniProt P62253) | 0
UBE2M UBC core domain (UniProt P61081) | 0
UBE2J2 UBC core domain (UniProt Q8N2K1) | 3020
UBE2J1 UBC core domain (UniProt Q9Y385) | 0
UBE2L3 UBC core domain (UniProt P68036) | 0
UBE2B UBC core domain (UniProt P63146) | 0
UBE2Z UBC core domain (UniProt Q9H832) | 0
UBE2D1 UBC core domain (UniProt P51668) | 0

Set 3
Target: CCNA2, cyclin fold, Cln2 fusion (human)
Method: yeast growth competition, sequencing
Sample: yeast
Notes: weak parent motif
Reference: not given
Reading: higher = stronger binding
Parent: DNAH7 docking peptide (human); HELFQRLDFDNDG
Change | normalised enrichment score
HELFARLDFDNDG [Q5A] | -0.0294
HEAFQRLDFDNDG [L3A] | 0.322
HELFQRLDFDNDA [G13A] | -0.0792
HELFQRLDFDNAG [D12A] | 0.138
HELFQRLAFDNDG [D8A] | -0.0826
AELFQRLDFDNDG [H1A] | 0.065
HELAQRLDFDNDG [F4A] | 0.115

Set 4
Target: RNA binding protein fox-1 homolog 2, RRM domain, GST-SBP tag (RBFOX2, Homo sapiens, UniProt O43251-10, residues 100-194)
Method: RNA Bind-n-Seq
Molecule type: RNA
Sample: in vitro
Concentration: 365 nM
Notes: natural RNA segment, single round, ends assumed
Reference: no-protein control
Reading: higher = stronger binding
All sequences stand within: GGGAGUUCUACAGUCCGACGAUC … UGGAAUUCUCGGGUGCCAA
Oligonucleotide | RBNS enrichment (R)
GUUCUGCAGCGUCAUGGAGGAUGGGCGGGCGCCAUGCAUGUGCAGGCUCACACUCCCAGCCUCCGCCACGCCACGAGGGACCUGUGACCCAGUGUCAUUCAGUAUUUUGU | 1.79
AUUUAAAAGGUCAGGGUGUUAUUUUCUUCUAUAAUAAAACAGCUCACUUGUGUUGUGCUCCAGAGUGUUUGUCUGACCGAGCAUCAUCACACAAACACUUGAGUCUGAUU | 0.364
AGCUCCACCUGCAUCCUCCAGGAGACCUCCCUGUGAUGUUGACUCAGGACCCCGCCUCUGUCCUCACUGUGCCAGGCCAUAGCCAGAGGCCACCCUGUAGUACAGGGAUG | 0.418
UGAGGGUUCCCAGGUUAUGUGGCACCUGCGGAAACCAUGUCUAGAGUCGUUUCUAUGUAGCUUGGCAGAGCCCACUGAUGGCUGCAGGUGUGUAGCCUACUGACAGCUUU | 0.674
UACUUUUUAAGCUGUUGUUAUGCAAAUCUUGAAGAAGUUACUGGCAUGGUUGUUGCAUAUAGUAAAACUGAGAGUAAUUCACCUGUGAAUCUGCAUAUUAAUUACCUGAU | 3.23
ACUUACACUGUUGACAUCUAUUUUCUGAAGUGUGUUUAAAUUAUUCAGUGCUAAUCAUUGUUUUUUCCUUUGUAAAUGUUGAUUCAGAAAAGGAAAGCACAGGCUAAGCA | 0.745
AAGAGCCUUUUCAAAUACAGAUCCAGAAGUCUGAUUUGUGCCAACCUUAGGAUGACCUAAGGGGAGGACCCCGUACCCCAUCACCGGAGAGCCUGCAUUUCCCUGCUAUU | 0.458
UUGGGAAUAAGCCAAAAACAGGGUGAUCUCAUUAGAUUUUGAAGAUAUAUGACUCCUUUGGGCUACAUUUCAUAUUGAUCAAUUUCUAGGUAUUUUUCACUGGCCCAAAG | 0.498

Set 5
Target: Histone acetyltransferase KAT6A, winged helix 1, GST fusion (KAT6A, Homo sapiens, UniProt Q92794, residues 1-85)
Method: protein binding microarray
Molecule type: double-stranded DNA, one strand shown
Sample: in vitro
Concentration: not given
Notes: 8-mer, flanks averaged, mean of 2 arrays, mostly near background
Reference: not given
Reading: higher = stronger binding
Residues (chain): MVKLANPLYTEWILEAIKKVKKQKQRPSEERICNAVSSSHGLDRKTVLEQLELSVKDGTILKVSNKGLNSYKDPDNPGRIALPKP
Oligonucleotide | E-score
GACATGCA | -0.208
ACGGACAT | 0.258
CACACGAG | -0.125
AACCGCAC | -0.0172
GGACGGAA | 0.212
ACTTTAAG | -0.0836
TGCGGACA | 0.213
CTGTCACC | -0.157
ACTTATAA | -0.209
ACTTATAG | 0.0259
AAAAACCA | -0.0663
GTCTAGCA | -0.116
AGCTAAAC | -0.117
AATATCAT | 0.0259
AGGATACA | -0.309
GATCAGAA | -0.131
AAGCGCAC | 0.306
AACGTTGT | -0.0226
AAAAATTA | 0.0725
CATATTGG | -0.259
CTCGCGTA | 0.21
GTACCCGA | 0.127
ATCGGACG | 0.112
ACTATGAC | -0.118
